Measurements gathered from unrelated publications.
Each line is one published result; not all experiments were run side by side. “And” joins repeats or separate records; there may be more than shown. ± marks the error that the study gave.

For O=c1[nH]sc2cc(F)ccc12, the efficacy was 29% (LDR; silenced CMV-GFP reporter derepression, qHTS).
For Nc1ncc(-c2nc(N3CCOCC3)nc(N3CCOCC3)n2)c(C(F)F)n1, the GI50 was 97 nM (BXPC-3; 72 h).
O=C1CCP(c2ccccc2)CC1 has a selectivity index of 0.8 (SW480; MTT; 72 h; reference: IC50 HaCaT over IC50 SW480).
Cc1cc(C(C)(C)c2ccc(O)c(C)c2)ccc1O — result for “G2 phase cells”: 20.4 ± 4.54% (HepG2 spheroids; Hoechst flow cytometry; 0.1 µM, 24 h).
For CN1CC[C@]2(C)c3cc(OC(=O)Nc4ccccc4)ccc3N(C)[C@H]12, “α-synuclein protein decrease” read at most 70% (mouse primary cortical neurons; Western blot; up to 1 µM).
CC(c1ccccc1)(c1ccc(O)cc1)c1ccc(O)cc1 — result for “G1 phase cells”: 73.6 ± 4.83% (HepG2 spheroids; Hoechst flow cytometry; 0.1 µM, 24 h).
For Cc1nn(-c2nc3c(F)cc(F)cc3s2)c(O)c1C(c1ccc(C(F)(F)F)cc1)c1c(C)nn(-c2nc3c(F)cc(F)cc3s2)c1O, the viability was 61.8% and 41.3% and 78.5% and 63.5% (RAW-ISG; CCK-8; 50 µM).
Cn1nccc1Nc1nccc(-c2cc3c(s2)C(C)(C)N(CCN2CCOCC2)C3=O)n1 has a PI-positive cells of 9.67 count and 7.67 count and 11.8 count (HCT116; IncuCyte; concentration not given, 28 (unit not given)).
COc1ccc2c(c1)[nH]c1c(C)nccc12 gave a DNA methylation of 95.8% (DU-145; bisulfite pyrosequencing, item: RASSF1A promoter CpG site 29; 10 µM, 16 h).
For Oc1ccc(C2(c3ccc(O)cc3)c3ccccc3-c3ccccc32)cc1, “S phase cells” read 5.28 ± 1.33% (HepG2 spheroids; Hoechst flow cytometry; 40 µM, 24 h).
COc1ccc([C@H]2c3[nH]c4ccc(Cl)cc4c3CCN2C(=O)Oc2ccc(Cl)cc2)cc1 gave an inhibition of 29% (HUVEC and PBMC co-culture; BioMAP SAg, item: IL-8; 0.1 µM, 24 h, with: TCR ligands).
CC1(C)CN(CCCCC(=O)N[C@H](Cc2ccc(O)c(I)c2)C(=O)N[C@H](Cc2ccccc2)C(=O)N[C@H](CCCCNC(=O)CCCCCCC(=O)NCCCC[C@H](NC(=O)N[C@@H](CCC(=O)O)C(=O)O)C(=O)O)C(=O)O)CC[N]2CC(C)(C)[S][Tc]2(=[O])[S]1 (some centres unmarked) [technetium-99m labelled] gave a surface-bound activity of 1.67 ± 0.24 %AD/mg protein (LNCaP; 25 nM, 1 h, 4 °C).
The selectivity index of Cc1n[nH]c(C)c1CSCc1ccccc1 is reported as 2.4 (Jurkat; cytotoxicity; reference: IC50 HEK293 over IC50 Jurkat).
For Cn1cncc1C1=CN(c2ncnc3[nH]cnc23)CCS1, the CC50 was over 200000 nM (OVCAR-8; ovarian cancer).
The TGI of COc1c(CCC[P+](c2ccccc2)(c2ccccc2)c2ccccc2)cc2c(c1OC)OCO2.[I-] is reported as over -4 log M (OVCAR-8; SRB).
CN1CCN(C2(CNC3CCN(c4cccc(-c5cc6cc(F)ccc6[nH]5)c4)CC3)CCC2)CC1 gave a GI50 of 2020 nM (OVCAR-8).
Under “lowest effective concentration”, COc1ccc(C(=O)O[C@H]2CC[C@@]3(C)[C@@H]4CC[C@H]5[C@]6(O)C[C@H](O)[C@@]7(O)[C@@H](CN8C[C@@H](C)CC[C@H]8[C@@]7(C)O)[C@]6(O)C[C@@]53O[C@]24O)cc1OC is recorded as 0.01 µM (hiPSC glutamatergic neurons; mean firing rate, multi-electrode array).
O=c1cc(-c2ccc(O)cc2)oc2cc(O)cc(O)c12: “neurite branch number” 1.8 to 2.1 (SH-SY5Y Aβ-GFP cells, scrambled shRNA; 5 µM).
With CCN(CC)c1ccc(C=NNC(=O)CSc2nc3ccccc3c(=O)n2Cc2ccc(S(N)(=O)=O)cc2)c(O)c1 the CC50 was over 100000 nM (SF-295; NCI five-dose screen).
For CC(C)N1CCC(NC2CCN(c3cccc(-c4cc5cc(F)ccc5[nH]4)c3)CC2)CC1, the GI50 was 1840 nM (OVCAR-8).
O=c1cc(-c2ccccc2)oc2c(O)c(O)ccc12: “neurite branch number” 1.3 to 1.5 (SH-SY5Y Aβ-GFP cells, TRKB shRNA; 5 µM).
Under “relative colony forming efficiency”, Cc1cnc2ccc3c(nc(N)n3C)c2n1 is recorded as 99 ± 4% (BALB/c 3T3; 5 µM; reference: solvent control).
The IC50 of COc1c(C)c2c(c(O)c1C/C=C(\C)CCC(=O)O)C(=O)OC2 is reported as 490 nM (LoVo; cell proliferation; colon cancer).
CC(=O)O[C@H]1CC[C@]2(C=O)[C@H]3CC[C@]4(C)[C@@H](C5=CC(=O)OC5)CC[C@]4(O)[C@@H]3CC[C@]2(O)C1 has a MyBP-C level of 9.1% (MYBPC3 iPSC cardiomyocytes; plate-normalised; concentration not given, 24 h, hit retest).
Under “apparent membrane tension”, C[C@H]1O[C@@H](O[C@H]2[C@@H](O)C[C@H](O[C@H]3[C@@H](O)C[C@H](O[C@H]4CC[C@@]5(C)[C@H](CC[C@@H]6[C@@H]5C[C@@H](O)[C@]5(C)[C@@H](C7=CC(=O)OC7)CC[C@]65O)C4)O[C@@H]3C)O[C@@H]2C)C[C@H](O)[C@@H]1O is recorded as 0.5 nN/µm (ReNcell VM neural progenitor cells; atomic force microscopy; 0.56 µM).
Under “fold change in IC50”, COc1cc(C(=O)NC2CCN(C)CC2)c(F)cc1Nc1ncc2c(n1)N(C1CCCC1)CC(F)(F)C(=O)N2C is recorded as 1.58 (HD-MB03; with: ribociclib 5 µM; reference: ribociclib over DMSO).
With Cc1cc(O)ccc1Cl the EC10 was 33100 nM (SH-SY5Y; neurite outgrowth inhibition, phase-contrast imaging; freely dissolved concentration).
CC(=O)O[C@H]1CC[C@@]2(C)[C@H](CC[C@@H]3[C@@H]2CC[C@]2(C)[C@@H](C4=CC(=O)OC4)[C@@H](OC(C)=O)C[C@]32O)C1 gave a MyBP-C level of 18.8% (MYBPC3 iPSC cardiomyocytes; plate-normalised; concentration not given, 24 h, hit retest).
Nc1ncnc2c1ncn2[C@@H]1O[C@@H]2COP(=O)(O)O[C@H]3[C@@H](O)[C@H](n4cnc5c(=O)[nH]cnc54)O[C@@H]3COP(=O)(O)O[C@H]2[C@H]1O has a fold enrichment of 3.77 (HFF-1; RNA sequencing, item: Reactome peptide ligand-binding receptors; upregulated pathways; reference: mock).
COc1cc(CCC[P+](c2ccccc2)(c2ccccc2)c2ccccc2)c(OC)c2c1OCO2.[I-] has a GI50 of -6.55 log M (RPMI-8226; SRB).
With COc1ccc([C@@H](O)c2cc(-c3ncnc4cc(N5CCOCC5)ccc34)c(F)cc2Cl)nn1 the clonogenic survival was 41 ± 3% (M12; 30 nM, with: radiation 2.5 Gy).
Under “log2 fold change”, C/C=C(/C)C(=O)O[C@H]1C(C)=C2[C@H]([C@@H]1OC(=O)CCCCCCC)[C@@](C)(OC(C)=O)C[C@H](OC(=O)CCC)[C@@]1(O)[C@H]2OC(=O)[C@@]1(C)O is recorded as -2.06 (HEK293T; RNA-seq, item: HSPA1A mRNA; 10 µM, 6 h; reference: vehicle).

Repeated from above:
Cn1nccc1Nc1nccc(-c2cc3c(s2)C(C)(C)N(CCN2CCOCC2)C3=O)n1 has a PI-positive cells of 9.67 count and 7.67 count and 11.8 count (HCT116; IncuCyte; concentration not given, 28 (unit not given)).
COc1ccc2c(c1)[nH]c1c(C)nccc12 gave a DNA methylation of 95.8% (DU-145; bisulfite pyrosequencing, item: RASSF1A promoter CpG site 29; 10 µM, 16 h).
For Oc1ccc(C2(c3ccc(O)cc3)c3ccccc3-c3ccccc32)cc1, “S phase cells” read 5.28 ± 1.33% (HepG2 spheroids; Hoechst flow cytometry; 40 µM, 24 h).
COc1ccc([C@H]2c3[nH]c4ccc(Cl)cc4c3CCN2C(=O)Oc2ccc(Cl)cc2)cc1 gave an inhibition of 29% (HUVEC and PBMC co-culture; BioMAP SAg, item: IL-8; 0.1 µM, 24 h, with: TCR ligands).
CC1(C)CN(CCCCC(=O)N[C@H](Cc2ccc(O)c(I)c2)C(=O)N[C@H](Cc2ccccc2)C(=O)N[C@H](CCCCNC(=O)CCCCCCC(=O)NCCCC[C@H](NC(=O)N[C@@H](CCC(=O)O)C(=O)O)C(=O)O)C(=O)O)CC[N]2CC(C)(C)[S][Tc]2(=[O])[S]1 (some centres unmarked) [technetium-99m labelled] gave a surface-bound activity of 1.67 ± 0.24 %AD/mg protein (LNCaP; 25 nM, 1 h, 4 °C).
